Assay results from different studies.
Parts stem from different laboratories: compare values within a part only. Substitutions count along the parent as printed.

Block 1 — target: CCND1, cyclin fold, Cln2 fusion (human); method: yeast growth competition, sequencing; matrix: yeast; setting: weak parent motif; baseline: not given; reading: higher = stronger binding
Starting sequence: CDC25A docking peptide (human); PPHRRRLLFACSP; partner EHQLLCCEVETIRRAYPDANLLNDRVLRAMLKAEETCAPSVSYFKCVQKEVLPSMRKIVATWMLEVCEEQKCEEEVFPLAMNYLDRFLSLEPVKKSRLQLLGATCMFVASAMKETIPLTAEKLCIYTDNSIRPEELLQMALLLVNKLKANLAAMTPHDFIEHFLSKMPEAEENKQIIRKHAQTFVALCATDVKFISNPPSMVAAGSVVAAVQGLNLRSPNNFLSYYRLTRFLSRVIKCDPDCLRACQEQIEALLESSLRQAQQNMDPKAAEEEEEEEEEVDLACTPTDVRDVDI
| Change | normalised enrichment score |
| --- | --- |
| PPHRRRLLFAGSP [C11G] | 0.141 |
| PPRRRRLLFACSP [H3R] | 0.277 |
| PPQRRRLLFACSP [H3Q] | 0.074 |
| PPHRRFLLFACSP [R6F] | -0.16 |
| PPPRRRLLFACSP [H3P] | -0.242 |
| PPHRRRLLLACSP [F9L] | 0.045 |
| PPHRRRLLIACSP [F9I] | -0.12 |
| HPHRRRLLFACSP [P1H] | 0.427 |
| PPHRRRLLFACSF [P13F] | 0.233 |
| PPHRRRLQFACSP [L8Q] | -0.642 |
| PPHRRRLLSACSP [F9S] | 0.389 |
| PPHRRRLLFADSP [C11D] | -0.385 |
| PPHRRRLLHACSP [F9H] | -0.165 |

Block 2 — method: RNA Bind-n-Seq; form: RNA; matrix: in vitro; tested at: 365 nM; baseline: no-protein control; reading: higher = stronger binding
Target: RNA binding protein fox-1 homolog 2, RRM domain, GST-SBP tag (RBFOX2, Homo sapiens, UniProt O43251-10, residues 100-194)
Setting: natural RNA segment, single round, ends assumed
Target sequence (chain): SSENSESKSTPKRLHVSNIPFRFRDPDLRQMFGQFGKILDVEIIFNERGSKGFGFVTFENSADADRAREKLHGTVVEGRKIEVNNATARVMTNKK
| Sequence | RBNS enrichment (R) |
| --- | --- |
| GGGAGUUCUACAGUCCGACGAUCGUGCCUUGGUUGACUAUUUUGGAAAUAGGCAUAUCAAGGUUCCUGAUUCAGCACUUUGCUCUUUUAAUAACAAAUCGUCCAAAGAUCUCAAAGUAAGGGUUUUUUUUUUUUGGAAUUCUCGGGUGCCAA | 0.463 |
| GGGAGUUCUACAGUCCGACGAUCUUCUAGUAUUUGGGAAGUGUUUAUGCUUCCUUCCAGGGACCAUCUUAUGAUCAGAGGCAGGAUGUCUGUGAGAUGGUUAGCUAGAGUUAGCAGUGUCCGGGGAGAGUGGCUGGAAUUCUCGGGUGCCAA | 0.874 |
| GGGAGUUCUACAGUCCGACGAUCGUCAGUGGCUCAGAGAUAGGGCUGGGCAGACAUCUACCUUAGGUAAAGUGGCUCCAGGGACUUAAGUGAAGUUCACUACUCUUAUCAGCAGUGCUGGAGAGCGGAGGAUUUGGAAUUCUCGGGUGCCAA | 0.45 |
| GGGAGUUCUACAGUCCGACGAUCUUGCAAGAGGAAAAUUGUCUGUGUUUUAAUCAGCUAAUGAGGAGGCUAUGGGAUGGACAGAGGGCUUCUUGCAGGAGAAUUGAGAAAAGUGACUAUCUUAAGAAUAUUAUUGGAAUUCUCGGGUGCCAA | 0.848 |
| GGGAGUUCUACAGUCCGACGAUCUUUCAUAAUUGGAUUCAUCAAUCCCGUAGCUACCCAUAUUGCACUGAGCUUGCCAGUGGUGACUGCCAGGAACGUCCUAUGAUCCACUUUGUUGGUUGUUGUUGCAGAAGUGGAAUUCUCGGGUGCCAA | 0.698 |
| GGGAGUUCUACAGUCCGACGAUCCAAGGACUUGGUUUCAUCAGUUACCAGGAAGUGGGGGAACCAUGGAGGGAGAACGCUAUAUUGGGUUCACAGUUACAUGGUGAUCAAAGAGAACUUCUCAGUCUCCAGGAUGGAAUUCUCGGGUGCCAA | 0.223 |
| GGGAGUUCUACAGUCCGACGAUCUCCCGUCCAUUCCAGUCAAAUCUGGGCUCACUCACCCCAGCGAGCUCUCAAAUCCCUCUCCAACUGCCUAAGGCCCUUUGUGUAAGGUGUCUUAAUACUGUCCUUUUUUUUGGAAUUCUCGGGUGCCAA | 0.757 |
| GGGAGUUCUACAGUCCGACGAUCUGUAAGCCGAGAGAAAAGUCAUGUAUAUCAGGCCUAGGUCUUGACACUUAAUUUUCUAUUGUAAAAAGUAAUAAUAUACAGAGUCUAACAGAAGGUCCUGUUGGGUUUGUUGGAAUUCUCGGGUGCCAA | 0.276 |
| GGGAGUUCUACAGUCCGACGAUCGCUUAUCUUUCUCUGGAGUUACGGAUUUGCCUGUGGAUUUAAUGCUCACACCAUGCUAUUUAAUUUUUAAAGUAACUUUUCAGAAAAUAUUACUGGCGUUUUGUUCAUUUUGGAAUUCUCGGGUGCCAA | 1.1 |
| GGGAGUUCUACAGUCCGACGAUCUAAUGAAGGACAAAGGGAACCAGGGACGGGGAGGAGGCAUAGUCUGUGGUGACAGACAAUGCUAAGGAGGGAUCGCUUUGCCUGCCGGGUUCUCAAGGCUCUCUACAGGUUGGAAUUCUCGGGUGCCAA | 0.701 |
| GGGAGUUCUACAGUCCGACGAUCAAAAAUAGGUGGUAAGCUUUCCUUCUUUCCUUAUUUUGUGUGAUGCCUUAAACUGAAAAGUUAAAAAUUGAUGGAUUGUAGCAUUCCCAUAAUCUCCCCCUUCUUUUUUUUGGAAUUCUCGGGUGCCAA | 1.57 |
| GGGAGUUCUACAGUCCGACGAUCUGAUAGGCAGGACUGAAAAACCAAAGAGCACAUGCACUGAGCUAUCUUGAAGUCCGUUAUAUGCAGAAUGAAGUUUUGCCAAGUCUGCUGGCAUUCACACGCUUCCAUGGUGGAAUUCUCGGGUGCCAA | 0.781 |

Block 3 — method: RNA Bind-n-Seq; form: RNA; matrix: in vitro; tested at: not given; baseline: input RNA pool; reading: higher = stronger binding
Target: RING finger protein unkempt homolog, zinc fingers 1-6, GST-SBP tag (UNK, Homo sapiens, UniProt Q9C0B0, residues 30-357)
Chain of UniProt Q9C0B0 (30-357, looked up): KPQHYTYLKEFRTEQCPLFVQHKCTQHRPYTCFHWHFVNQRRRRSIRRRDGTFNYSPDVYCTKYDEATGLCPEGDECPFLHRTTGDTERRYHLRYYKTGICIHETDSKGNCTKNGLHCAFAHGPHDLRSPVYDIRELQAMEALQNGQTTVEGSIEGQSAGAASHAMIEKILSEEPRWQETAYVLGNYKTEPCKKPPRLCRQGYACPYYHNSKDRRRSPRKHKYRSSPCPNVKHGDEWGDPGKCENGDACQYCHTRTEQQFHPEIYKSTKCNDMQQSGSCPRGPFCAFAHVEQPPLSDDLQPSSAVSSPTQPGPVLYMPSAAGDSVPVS
Setting: RNA with constant flanks, human-mouse chimeric sites, ends assumed
| Sequence | bound/input enrichment |
| --- | --- |
| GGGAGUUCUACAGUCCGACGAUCCCUGCUCAGAUCACCAUGAAAGUAAUCCAAGGCCUAUACAGUGGGGUCACCACAGUGGAACUGGACACCCUGGCUGCUGAGACAGCCGCGACCUUGACCACGAAGCACCCUGACUAUGCCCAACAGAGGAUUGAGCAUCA | 0.124 ratio |
| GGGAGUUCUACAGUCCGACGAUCCGCUGGCCCAAGCUGAUGUAAAUGUUUGGCCUCCAUCUCUCAGGCACGUGUGCCUUCUCUUAGUCCCUGUUUUCGGGAUGUUAUGAACAGUAUCAUGGUGGUUUGAAAGCACCAGCUUUGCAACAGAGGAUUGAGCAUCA | 0.132 ratio |
| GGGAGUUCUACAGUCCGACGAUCCCCUCCCCGGGCCACCCACCCCUCCCGGCUCCCCGCCGAGAUCCAGGUUUCUUCUGUUUUCAUAGCAAGCCAGAACAAUGUUCUACGCACAUUUUGUCCUCAGUAAACGAGGGCCUCUGGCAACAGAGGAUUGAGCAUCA | 1.52 ratio |
| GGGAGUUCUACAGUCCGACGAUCCUGGCACUGUAUCAGAUAUAUUAAUUUUUAAAUGUAGAUGUAAUUUUAAAAAUGAAUGGCUACUUUACACGUUUAACUAGGGUUUUACUAUAUAUGUGUACAUAUGUAUAUAUAUAUAUACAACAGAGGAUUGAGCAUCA | 2.15 ratio |
| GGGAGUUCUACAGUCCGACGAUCAACUUCGUGCAUCGGUUUCCCUUUGUAGCUGUUUCAAUUGGCUUUGCUGUGAAUAAAGAGAUGGAGUUUGGAAUUGUGUACAGCUGUGUGGAAGAUAAGAUGUACACCGGCAGGAAAGGGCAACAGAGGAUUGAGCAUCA | 0.461 ratio |
| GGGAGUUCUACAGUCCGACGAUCGGUGGGGGGUUGUCAUUCGUUUGAGCUGCUGAUUUUCAUGAGUCGCCUUCAAAACUCUCGUGUAGGGUUGACAAUGUAAGGGGUGGGGGGAUCCAGCUUAUUCUUUUAUUUUCAAGUCCACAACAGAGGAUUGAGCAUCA | 0.589 ratio |
| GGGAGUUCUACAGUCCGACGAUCAGCACAACCCCAGCAAAGCUAAGAAAUCCUUGCACAAGUGAACAAAACUGCACCAGCCCAUUUAGCUACAAAAAUGUGCUUAGUCUUACUGACAGAGGAGAGUUUUUUAAUGAACUUGUUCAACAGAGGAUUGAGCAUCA | 1.26 ratio |
| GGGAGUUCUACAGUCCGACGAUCCCCCAAUUACCAUCUGUGGUCUGGAACUGCACUCUCUUUUUUAAAAAACAUGUAUACAUUUUAGGGCUGUAGAUUUAUUUUCCUGGUUUUGUUUUUCAUUGCUGACUUUUGAGCACAGAACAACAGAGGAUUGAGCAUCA | 1.77 ratio |
| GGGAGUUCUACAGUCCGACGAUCACCUCCCCCUCCCGCCUCACCCCACCCCCGCUUUUUGGAAAGUUUUUGGCGUUUCUUUUCCUUCCCCAGUUAGAAUUAUUACAGUUUAGAGUCUAUGGGUCUAUCGAAGGGCUUGACGGACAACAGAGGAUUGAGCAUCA | 91.4 ratio |
| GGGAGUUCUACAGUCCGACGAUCGGGGAGAAACCUUACGAGUGUGUGCAGUGUGGGAAAUCGUAUAGUCAGAGCUCAAACCUUUUUAGACAUCAGAGACGACACAAUGCAGAAAAACUUUUGAAUGUUGUGAAGGUUUAAGAACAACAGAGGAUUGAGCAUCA | 0.76 ratio |
| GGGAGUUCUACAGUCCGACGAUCGGAAGUACAUUAAUGGAGAUUGAUGGUGACAAAGGCAAGCAGGGCGGUCCCACCUACUACAUAGACACCAAUGCCCUCCGCGUGCCCAGGGAGAACAUGGAGGCCAUCUCACCACUCAAGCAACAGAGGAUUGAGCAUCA | 0.327 ratio |

Other studies, line by line
| Molecule | target | assay | test system | setting | scale | endpoint | value |
| --- | --- | --- | --- | --- | --- | --- | --- |
| PhoQ, residues 284 288 289 292 302 303 AGGCYF | PhoP, residues 12 14 15 18 19 IQFRS (Escherichia coli, UniProt P23836) | Sort-seq, measured: YFP reporter | E. coli | PhoQ-PhoP variant library, together with: 10 µM Mg2+ | baseline: high Mg2+ state, higher = stronger signaling | fold induction | 6.21 |

A few entries again (block 1):
| Change | normalised enrichment score |
| --- | --- |
| PPRRRRLLFACSP [H3R] | 0.277 |
| PPQRRRLLFACSP [H3Q] | 0.074 |
| PPHRRFLLFACSP [R6F] | -0.16 |
| PPPRRRLLFACSP [H3P] | -0.242 |
| PPHRRRLLLACSP [F9L] | 0.045 |
